Experimental data of several laboratories.
Lines come from different studies, so protocols differ. Several values in a cell are separate wells, animals, samples, runs or records. ± gives the spread as reported.

Structure (SMILES)	test	test system	setting	how to read	measurement	value
CN(C(=O)n1cnc(-c2ccc[n+]([O-])c2)c1)[C@H]1CC[C@H](O)CC1	–	Wistar rat, medulla oblongata	oral, 10 mg/kg of BIA 10-2474, 24 h, single dose	–	concentration	13.3 ± 0.3 ng/g
CC(=O)N=S(=O)(O)c1ccc(N/C=C2\C(=O)Nc3ccc4ncsc4c32)cc1	–	octanol/buffer, 40 mM buffer	pH 11	–	logP	1.01
O=C1NCCc2nc(OCc3cccc(F)c3)ccc21	refers to: loss of Escape	Sprague-Dawley rat male	oral, 100 mg/kg, 0 min	reference: baseline, direction not given	Irwin test score	0.4
COc1cc2c(Nc3ccc(Cl)c(Cl)c3F)ncnc2cc1OC[C@@H]1C[C@@H]2CN(C)C[C@@H]2C1	–	FVB Mdr1a/b(-/-) Bcrp1(-/-) mouse	oral, 70 mg/kg, 2 h	–	total plasma concentration	2030 ng/mL
COc1c(OCCCN2CCOCC2)ccc2c1N=C(NC(=O)c1cnc(N)nc1)N1CCN=C21	–	human	–	reference: females over males	decrease in V1	42.9%
Cc1cc(-c2nccc3c2ccn3CC(=O)Nc2ccc(-c3cnccn3)cn2)ccn1	–	human	15 mg once daily, multiple ascending dose	–	post-procedural inflammation	0%
Cc1cc(NC2CCN(C(=O)OC3CCN(C(=O)/C=C/CN(C)C)C3)CC2)n2ncc(C(C)C)c2n1 (stereo not shown)	CTCAE v4.0, refers to: Arthralgia	patients with advanced solid tumours	oral, dose not given, all schedules, grade 3 or higher	–	patients with TEAE	0%
CC[C@H](C)[C@@H]1NC(=O)[C@@](C)(NC(=O)[C@H](CCCNC(=N)N)NC(=O)[C@H](CC(C)C)NC(=O)[C@@H](NC(=O)[C@H](CCC(N)=O)NC(=O)[C@H](CC(C)C)NC(C)=O)[C@@H](C)O)CCCC=CCCC[C@@](C)(C(=O)N[C@@H](CC(C)C)C(=O)N[C@@H](Cc2ccc3ccccc3c2)C(N)=O)NC(=O)[C@H](CCCNC(=N)N)NC(=O)[C@H](CCC(N)=O)NC1=O	–	BALB/c mouse	intraperitoneal, 5 mg/kg	–	Vz	0.01 L
CNC(=O)c1ccc(-c2cnc3ncc(Cc4ccc5ncccc5c4)n3n2)cc1F	refers to: Constipation	cancer patients	oral, 600 mg twice daily, all expansion cohorts, grade 3-4	–	patients with adverse event	5%
CCc1cc(C(=O)NC)c2nccc(N3CCc4c(cc(Cn5ccnc5)cc4-c4cn(C)nc4C(F)(F)F)C3=O)c2c1	refers to: HGB	Sprague Dawley rat	oral, 50 mg/kg once daily, 7 days	reference: vehicle	change in clinical chemistry or haematology parameter	2.45%
N#CCC1CCN(c2nc(Nc3ccc(N4CCC(O)CC4)cc3)c3c(=O)[nH]ncc3n2)CC1	–	human, plasma	oral, 40 mg once daily, day 1	–	AUC(0-24 h)	1410 ng·h/mL
O=C(O)C[C@H](O)C[C@H](O)/C=C/c1c(C2CC2)nc2ccccc2c1-c1ccc(F)cc1	–	FVB wild-type mouse, plasma	oral, 5 mg/kg, geometric mean	–	AUC(0-12h)	0.0773 µM·h
CNc1ccc(-c2nc3ccc(O)cc3s2)cc1 [carbon-11 labelled]	ex vivo biodistribution	APP/PS1 mouse, AD model, hippocampus	intravenous, 30 min	–	SUV	0.204 ± 0.12
CC[C@@H]1CN(C(=O)NCC(F)(F)F)C[C@@H]1c1cnc2cnc3[nH]ccc3n12	population PK modelling	human	oral, extended-release formulation, outliers re-estimated	–	zero-order input duration	3.29 h
CCn1c(=O)c(-c2cc(NC(=O)Nc3ccccc3)c(F)cc2Br)cc2cnc(NC)cc21	–	human plasma	4000 ng/mL, 1 months, -20 °C, high QC	–	long-term stability accuracy	9.69%
CCN1/C(=C/C(C)=O)Sc2ccc(F)cc21	–	cynomolgus monkey	oral, 10 mg/kg, 2 h post-dose	–	mean blood pressure	88 ± 5 mmHg
O=C(O)CCC(=O)O.[2H]C([2H])([2H])Oc1cc(C)c2[nH]ccc2c1CN1CC[C@@H](C2CC2)C[C@H]1c1ccc(C(=O)O)cc1	LC-MS/MS, mean	human, plasma	400 mg, single dose, fasting	–	Vd/F	120 L
N#Cc1ccc2c(c1)[C@H]1CCCN(C(=O)c3ccc4[nH]cnc4c3)[C@H]1C2	–	human	240 mg, day 15	reference: baseline	cortisol level change	-84 nmol/L
Cl.[2H]C([2H])([2H])CC(=O)c1cnc(NC(=O)C2CC2)cc1Nc1cccc(-c2ncn(C([2H])([2H])[2H])n2)c1OC	geometric mean	human	oral, 5 mg single dose, fasted, liquid	–	AUC(0-24 h)	283 ng·h/mL
CCCCC[C@H](O)CC[C@@H]1[C@H]2Cc3cccc(OCC(=O)O)c3C[C@H]2C[C@H]1O	LC-MS/MS	Japanese PAH patients, plasma	inhaled, 54 µg, age ≥50 years, mean	–	Tmax	10.2 min

Structure (SMILES)	test	test system	setting	how to read	measurement	value
COc1cc(OC)c(NC(=O)CSc2nnc(-c3ccncc3)n2C)cc1Cl	–	octanol/buffer	pH 11, known kinase inactives set	–	logP	1.76
C=CC(=O)NC1CCN(c2ncc3ncnc(Nc4ccc(Oc5ccc6c(c5)ncn6C)c(C)c4)c3n2)CC1	refers to: total radioactivity	healthy male volunteers, whole blood	oral solution, 60 mg, added: [14C]-labelled compound	–	tmax	1 h
COc1ccc(C=CC(=O)O)cc1OS(=O)(=O)O	–	human, cerebrospinal fluid	concentration not given, median	–	CSF concentration	12.8 nM
COc1ncc(-c2nc3c(n2C(C)C)[C@H](c2ccc(Cl)cc2)N(c2cc(Cl)cn(C)c2=O)C3=O)c(OC)n1	–	human patients, plasma	oral, 350 mg, high-dose arm, cycle 2 day 1	–	median half-life	1370 min
COc1ccccc1NC(=O)CSc1nnc(-c2ccc(F)cc2)n1C	–	octanol/buffer	pH 11, known kinase inactives set	–	logP	2.4
Cc1ccc([C@@H]2O[C@H](CO)[C@@H](O)[C@H](O)[C@H]2O)cc1Cc1ccc(-c2ccc(F)cc2)s1	–	Japanese type 2 diabetes patients	200 mg, day 4, 24 h urine collection	reference: baseline	urinary potassium excretion change	0.54 mEq
Cc1nc(C)c(-c2ccnc(Nc3ccc(F)cc3)n2)s1	–	octanol/buffer	pH 11	–	logP	3.96
C[C@@H](Nc1cc(F)cc(F)c1)c1cc(C(=O)N(C)C)cc2c(=O)cc(N3CCOCC3)oc12	–	patients with advanced solid tumours	oral, dose not given, dose-expansion phase	–	patients with related serious AE	10%
COC(=O)c1ccccc1C1=c2cc3c4c(c2Oc2c1ccc1cccc(O)c21)CCC[N+]=4CCC3.[Cl-]	–	12.5 mM aqueous NaOH	pH 12.1, 10% DMSO	–	emission maximum	770 nm
COc1ccnc(C[S+]([O-])c2nc3ccc(OC(F)F)cc3[nH]2)c1OC (stereo not shown)	–	human	intravenous, median	–	dose-normalised Cmax	5.5 µg/mL per mg/kg
Cc1cc(C)c(CNC(=O)c2cc(Cl)c3c(c2C)O[C@@](C)([C@H]2CC[C@H](N(C)C)CC2)O3)c(=O)[nH]1	CTCAE v4.0, refers to: blood bilirubin increased	human relapsed/refractory NHL	oral, 200 mg once daily, onset after cycle 1 day 1, overall treatment period	–	patients with TEAE	16.7%
CCO[C@H]1CCN(Cc2c(OC)cc(C)c3[nH]ccc23)[C@H](c2ccc(C(=O)O)cc2)C1	–	PNH patients, active haemolysis	oral, 25 mg, 4 weeks, treatment	–	incidence of dyspepsia	0%
CC(C)n1c(Nc2cccnc2)nc2cnc(Nc3ccc(N4CCN(C)CC4)cc3)nc21	refers to: eosinophil count increased	healthy male subjects	oral, 100 mg, study, added: gemfibrozil	–	subjects with adverse event	0%
CSc1ccc(S(=O)(=O)NCc2ccccn2)cc1	–	octanol/buffer	pH 11, known kinase inactives set	–	logP	1.91
C[C@]12CC[C@@H]3c4ccc(O)cc4C[C@@H](CCCCCCCCC[S+]([O-])CCCC(F)(F)C(F)(F)F)[C@H]3[C@@H]1CC[C@@H]2O (stereo partly shown)	–	non-tumour-bearing mouse, brain	subcutaneous, single dose, day 8, co-dosed orally daily 7 days	–	total brain concentration	11 nmol/L
C=CC[C@@H]1/C=C(\C)C[C@H](C)C[C@H](OC)[C@H]2O[C@@](O)(C(=O)C(=O)N3CCCC[C@H]3C(=O)O[C@H](/C(C)=C/[C@@H]3CC[C@@H](O)[C@H](OC)C3)[C@H](C)[C@@H](O)CC1=O)[C@H](C)C[C@@H]2OC	–	Wistar Kyoto rat, male, plasma	ip, 0.5 mg/kg/day, day 18	–	plasma total Ca2+	2.76 ± 0.05 mmol/L
CCc1cc2ncc(CN3CCN(c4ccc(C(=O)NC)nc4)CC3)cc2[nH]c1=O	–	male rat, blood	oral, 25 mg/kg/day, 4 weeks	reference: vehicle control	Monocytes count ratio	0.33
NC1(C(=O)N[C@@H](CCO)c2ccc(Cl)cc2)CCN(c2nc[nH]c3nccc2-3)CC1	–	metastatic CRPC patients	320 mg b.i.d., any grade, treatment-related, added: enzalutamide 160 mg daily	–	incidence of Leukopenia	0%
CC(C)(C)c1ccc(O)c(CN(Cc2cc(C(C)(C)C)ccc2O)C2CCC(NC(N)=O)CC2)c1 (stereo not shown)	–	mouse plasma	5 ng/mL, 3 months, -20 °C, long-term storage	–	recovery	99.7 ± 1.15%
Nc1ccn([C@@H]2CS[C@H](CO)O2)c(=O)n1	–	Tat+ transgenic mouse, plasma	subcutaneous osmotic pump, dose not given, 5 d	–	drug concentration	501 ± 66.8 ng/mL

Structure (SMILES)	test	test system	setting	how to read	measurement	value
Oc1ccc(/C=C/c2cc(O)cc(O)c2)cc1	–	rat, azoxymethane-injected, blood	in vivo, 100 mg/kg, at sacrifice	–	AST level	270 IU/L and 172 IU/L and 291 IU/L
O=C(Nc1nc2cccc(-c3ccc(CN4CCS(=O)(=O)CC4)cc3)n2n1)C1CC1	–	rheumatoid arthritis patients	oral, 100 mg twice daily, 4 weeks, TEAE regardless of relatedness	–	patients with Paresthesia	0%
CC[N+]([O-])(CC)CCNC(=O)c1c(C)[nH]c(/C=C2\C(=O)Nc3ccc(F)cc32)c1C	–	human, serum	25 mg maintenance dose	–	serum concentration	0.23 ng/mL
NC[C@@H]1O[C@H](O[C@H]2[C@@H](O)[C@H](O[C@@H]3[C@@H](O)[C@H](N)C[C@H](N)[C@H]3O[C@H]3O[C@H](CO)[C@@H](O)[C@H](O)[C@H]3N)O[C@@H]2CO)[C@H](N)[C@@H](O)[C@@H]1O	–	NSG mice	dose not given, day 7 of treatment	–	body weight	20.5 g and 23.1 g and 23.3 g and 21.9 g and 22.8 g and 24.3 g
Cc1cc(C)c(S(=O)(=O)NCc2ccccn2)cc1C	–	octanol/buffer	pH 11	–	logP	2.55
Cn1cc([C@H]2C[C@H]3CSC(N)=N[C@@]3(c3ccc(F)cc3F)CO2)cn1	–	male 129/SVE mouse, CSF	subcutaneous, 3 mg/kg, 1 h	–	CSF concentration	27 nM
Cc1ccc(NC(=O)c2ccc(CN3CCN(C)CC3)cc2)cc1Nc1nc(-c2cccnc2)cs1	–	human	oral, 600 mg daily	–	max unbound liver inlet concentration	0.26 to 1.5 µM
CC(C)(C(=O)N1CCOc2c(C#N)cncc2C1)C(F)F	–	human, both sexes, plasma	oral, 15 mg twice daily, 14 days, multiple ascending dose	reference: day 14 over day 1	accumulation ratio Cmax	1.24
CN(CCCN1CCN(C(=O)CN2CCN(CC(=O)[O-])CCN(CC(=O)[O-])CCN(CC(=O)[O-])CC2)CC1)c1ccc2nccc(C(=O)NCC(=O)N3CC(F)(F)C[C@H]3C#N)c2c1.[68Ga+3]	–	mice, HT-1080.hFAP and HT-1080 wild-type xenografts, intestine	iv, 500 pmol, 1 h post injection	–	uptake	0.3 ± 0.1 %IA/g
Cc1nc2c([nH]1)c(=O)n(C)c(=O)n2Cc1ccco1	–	male rat liver microsomes	20 µM, 3 h, added: DHA-Na 5 mg/L	–	inhibition	12.2 ± 1.88%
O=C(O)[C@H]1O[C@@H](Oc2cc(O)cc(/C=C\c3ccc(O)cc3)c2)[C@H](O)[C@@H](O)[C@@H]1O	–	human, cerebrospinal fluid	dose not given, mean	–	CSF concentration	not detected
FC(F)(F)c1ccc(CNc2ccc(Cc3c[nH]c4ncc(Cl)cc34)cn2)cn1	refers to: face oedema	human, advanced solid tumours, all patients	oral, 1000 mg/day, any grade	–	treatment-related adverse events	9%
C[C@H]1CO[C@@H]2Cn3cc(C(=O)NCc4ccc(F)cc4F)c(=O)c(O)c3C(=O)N12	–	human patients, all-treated set	intramuscular, dose not given, long-acting injection with rilpivirine LA, median	–	time to injection-site reaction resolution	4 days
N[C@H]1C(O)O[C@H](CO)[C@@H](O)[C@@H]1O (stereo partly shown)	–	aqueous solution	15 mM, added: glucose	–	osmolality	12 mOsmol/kg
CNC(=O)c1cc(Oc2ccc(NC(=O)Nc3cc(C(C)(C)C)nn3-c3ccc4ncccc4c3)c(F)c2)ccn1	refers to: worst grade 1	human	oral, dose not given, cycles 1 and 2, High Cmax subgroup	–	patients with any AE of special interest	33%
CC1=C(c2cccc(O)c2)[C@H](c2ccc(OCCN3CC(CF)C3)cc2)Oc2ccc(O)cc21	–	human, plasma	oral, 1400 mg single dose, geometric mean	–	AUC(0-24 h)	1410 ng·h/mL
Cc1ccc(Sc2ccccc2N2CCNCC2)c(C)c1	refers to: hot flush	healthy adult men	oral, 10 mg daily, 12 days	–	participants with TEAE	0%
O=C(O)c1cc(O)c(O)c(O)c1	–	rat, plasma	oral, 1000 mg/kg extract, possible metabolite or extract component	–	elimination rate constant	7.5e-05 ± 8.33e-06 s⁻¹

For quick reference, copied from above:
Structure (SMILES)	test	test system	setting	how to read	measurement	value
O=C(O)C[C@H](O)C[C@H](O)/C=C/c1c(C2CC2)nc2ccccc2c1-c1ccc(F)cc1	–	FVB wild-type mouse, plasma	oral, 5 mg/kg, geometric mean	–	AUC(0-12h)	0.0773 µM·h
CNc1ccc(-c2nc3ccc(O)cc3s2)cc1 [carbon-11 labelled]	ex vivo biodistribution	APP/PS1 mouse, AD model, hippocampus	intravenous, 30 min	–	SUV	0.204 ± 0.12
CC[C@@H]1CN(C(=O)NCC(F)(F)F)C[C@@H]1c1cnc2cnc3[nH]ccc3n12	population PK modelling	human	oral, extended-release formulation, outliers re-estimated	–	zero-order input duration	3.29 h
CCn1c(=O)c(-c2cc(NC(=O)Nc3ccccc3)c(F)cc2Br)cc2cnc(NC)cc21	–	human plasma	4000 ng/mL, 1 months, -20 °C, high QC	–	long-term stability accuracy	9.69%
CCN1/C(=C/C(C)=O)Sc2ccc(F)cc21	–	cynomolgus monkey	oral, 10 mg/kg, 2 h post-dose	–	mean blood pressure	88 ± 5 mmHg
O=C(O)CCC(=O)O.[2H]C([2H])([2H])Oc1cc(C)c2[nH]ccc2c1CN1CC[C@@H](C2CC2)C[C@H]1c1ccc(C(=O)O)cc1	LC-MS/MS, mean	human, plasma	400 mg, single dose, fasting	–	Vd/F	120 L
N#Cc1ccc2c(c1)[C@H]1CCCN(C(=O)c3ccc4[nH]cnc4c3)[C@H]1C2	–	human	240 mg, day 15	reference: baseline	cortisol level change	-84 nmol/L
